Assay results pooled from the literature.
Parts stem from different laboratories: compare values within a part only.

Study 1
Target: Prothrombin, mature alpha-thrombin (F2, Homo sapiens, UniProt P00734)
Technique: aptamer microarray, sandwich
Molecule type: DNA with 2'F-ANA
Sample: in vitro
Concentration: 200 nM
Setting: whole 15-mer aptamer, many near background
With: Cy3 exosite-II aptamer, 400 nM
Direction: higher = stronger binding
Quantity: mean fluorescence intensity
Oligonucleotide: GGTTGGTGTGGTTGG
2'F-ANA at 2 3 8 11 12 14 15: 382 a.u.
2'F-ANA at 1 3 5 6 7 10 13 14 15: 45.5 a.u.
2'F-ANA at 4 5 9 10 11 14 15: 78.8 a.u.
2'F-ANA at 1 2 7 9 11 12 13 14 15: 60.7 a.u.
2'F-ANA at 1 2 4 6 7 8 9 10 11 12 13 14 15: 51.4 a.u.
2'F-ANA at 2 3 4 5 7 8 10 12 13: 49.9 a.u.
2'F-ANA at 8 10 11 12: 204 a.u.
2'F-ANA at 2 4 6 8 9 11 12 13 15: 296 a.u.
2'F-ANA at 4 5 6 8 10 11 12: 54.4 a.u.
2'F-ANA at 2 3 6 7 8 9 14: 354 a.u.

Study 2
Molecule: PhoQ, residues 284 288 289 292 302 303 SMMNNA
Technique: Sort-seq
Item: YFP reporter
Sample: E. coli
Setting: PhoQ-PhoP variant library
With: 10 µM Mg2+
Baseline: high Mg2+ state
Direction: higher = stronger signaling
Quantity: fold induction
PhoP, residues 12 14 15 18 19 LFHKL (Escherichia coli, UniProt P23836): 4.91
PhoP, residues 12 14 15 18 19 QQAYL (Escherichia coli, UniProt P23836): 22.4
PhoP, residues 12 14 15 18 19 GMGLL (Escherichia coli, UniProt P23836): 6.1

Study 3
Target: RNA binding protein fox-1 homolog 2, RRM domain, GST-SBP tag (RBFOX2, Homo sapiens, UniProt O43251-10, residues 100-194)
Technique: RNA Bind-n-Seq
Molecule type: RNA
Sample: in vitro
Concentration: 365 nM
Setting: natural RNA segment, single round, ends assumed
Baseline: no-protein control
Direction: higher = stronger binding
Quantity: RBNS enrichment (R)
All sequences stand within: GGGAGUUCUACAGUCCGACGAUC … UGGAAUUCUCGGGUGCCAA
Construct (chain): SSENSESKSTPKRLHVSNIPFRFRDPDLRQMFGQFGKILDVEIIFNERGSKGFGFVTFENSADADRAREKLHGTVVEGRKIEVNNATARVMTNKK
UCUGCAGGACAUCUGGUCCUAAACUGGAACAGAGACGCUUGGAAUUUGUUUUUGUUUUUGUUUGUUUGUUUGUUUUUUCUUGAAGUGCCAAAGGUCAAUUUUACAGAAGA: 5.24
AUACUGAAUCCUCAAGAAGCCUUGUCAAGUUUGUAGGUAUCAUUGACGUUUUGACGAUGAGGAAAGGAGAUGCUCAGAGAGAGAGAGAUCAUGUGUUGUGAGUCAGAUCA: 1.33
AUCACAGUCCCGCCGUGUCUUAGAAACUGCUUUGGCCGAUGCAAACAGCCCCCUACCCGUCCCCCUCGCCUCACACGGUCCCUCUCCGAGGCCGAGAAGACCUUCUGUUC: 0.45
UUUUUUCCUCUCCUAUUCCAACACUUCCUGCUGGGAGAUCUCCACGCCUAUUUUCACCAUUCUCAGGCAAAUACUCCAUGGCUGUAGUUUGACGGACUGUUCCAAUCUGC: 0.675
AACUUCCCCUCAAAAAGGAAUCAACCCCAGGAAGUAAUUAUUUACAACGAUUUUCCCAAAUUUUGUACAAUCUGUCCUGGAAAGCAAACCCCUUUUAAAAUCUAAUGUCU: 0.287
AAUAAAAUCAGGAGUUUGUACAAAAGUUAAAUGGAACAUUAUAAUUAUUUUAAGUAAUGUUAAUUGAAAAAAUUUUUUCUUUUUGACAAUAUAAAAAACAUUUUAAAUUU: 0.825
AGGGAAGGGAGUGUAUAAGGAAGGAAACCUCAUACCCUCCAUUCCCAUCCCUGGAUAUAUUGCCUUUUCAGCAGCCUCGGGUUCAGUGUGCUUGGGGUCAGGAGUGCCAG: 0.366
UUUUAUGAAGCCUUCAGGGGGACUCAGUAUUGCUGGCCUUUGUUGUAGCCUGUGGUUCCUUCGGAGUCCUCUCCCACCCUUUUCCAGUAUUUGAAUAAAAAGAUAAAAGA: 0.531
CUCGUAGGUAGUCAUGGAAGUCACAGGUAAGUGCAGGAGCUUGAAGACAGGCAAGAGGUCUCUAAGGUGUUCCUUUCCUUUGUCUGAGUGUAUAGUAUUAAGAUGCCUAG: 0.315

Study 4
Target: Histone acetyltransferase KAT6A, winged helix 1, GST fusion (KAT6A, Homo sapiens, UniProt Q92794, residues 1-85)
Technique: protein binding microarray
Molecule type: double-stranded DNA, one strand shown
Sample: in vitro
Concentration: not given
Setting: 8-mer, flanks averaged, mean of 2 arrays, mostly near background
Baseline: not given
Direction: higher = stronger binding
Quantity: E-score
Target sequence (chain): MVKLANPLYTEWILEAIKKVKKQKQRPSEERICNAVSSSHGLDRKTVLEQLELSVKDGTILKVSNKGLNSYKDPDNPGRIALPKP
AGGCCAAG: -0.124
ACCATAGC: -0.0715
AGTCGGAC: -0.0555
CGAGAGAG: -0.143
AGCTGGGA: -0.283
CGTCATCC: 0.188
AGCGTACA: 0.00959
TCGGCCCA: 0.101
CGACAAAA: -0.106
AATCATTA: -0.113
ACCAGTTA: -0.301
GCTCGACC: 0.0903
